# Experimental data of several laboratories.
# Numbered parts are unrelated; each lists some results of a single study. Substitutions count along the parent as printed.

# Block 1
# Target: CCND1, cyclin fold, Cln2 fusion (human)
# Method: yeast growth competition, sequencing
# Medium: yeast
# Notes: strong parent motif
# Baseline: not given
# Direction: higher = stronger binding
# Parent: PKN2 docking peptide (human); VSAVRKLDFSDTM; partner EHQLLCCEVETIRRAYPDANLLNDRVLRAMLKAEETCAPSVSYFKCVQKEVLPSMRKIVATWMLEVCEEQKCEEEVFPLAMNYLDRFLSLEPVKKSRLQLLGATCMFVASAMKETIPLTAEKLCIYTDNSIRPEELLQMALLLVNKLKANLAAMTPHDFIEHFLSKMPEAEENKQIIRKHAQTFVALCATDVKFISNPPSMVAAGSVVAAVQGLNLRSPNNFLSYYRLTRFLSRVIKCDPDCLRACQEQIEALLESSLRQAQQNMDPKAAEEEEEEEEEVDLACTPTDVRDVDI
Variant,normalised enrichment score
VSAVRKLDFTDTM [S10T],4.86
VSAVRKLCFSDTM [D8C],3.02
VSAVRKLDLSDTM [F9L],1.01
VSAVRKLDQSDTM [F9Q],-0.241
VSAVRKLQFSDTM [D8Q],3.45
VSAVRKLDFIDTM [S10I],3.59
VHAVRKLDFSDTM [S2H],4.33
VSAVRKNDFSDTM [L7N],-0.127
VSAVRKLDFKDTM [S10K],3.92
VSAVGKLDFSDTM [R5G],0.482
VSAVRKLDFADTM [S10A],5.11
VSAVRKLDFYDTM [S10Y],3.6
VSGVRKLDFSDTM [A3G],1.27
VSDVRKLDFSDTM [A3D],0.177
VSAVRKLDHSDTM [F9H],0.097
VSAVRILDFSDTM [K6I],3.56
VFAVRKLDFSDTM [S2F],2.71
VSCVRKLDFSDTM [A3C],4.11
VSPVRKLDFSDTM [A3P],2.37
VSAVRKLPFSDTM [D8P],0.615
VSAVRKLNFSDTM [D8N],3.77
VSAVRKLDFSKTM [D11K],4.24

# Block 2
# Target: Sal-like protein 4, full length isoform A (SALL4, Homo sapiens, UniProt Q9UJQ4, residues 1-1053)
# Chain of UniProt Q9UJQ4 (whole entry, looked up): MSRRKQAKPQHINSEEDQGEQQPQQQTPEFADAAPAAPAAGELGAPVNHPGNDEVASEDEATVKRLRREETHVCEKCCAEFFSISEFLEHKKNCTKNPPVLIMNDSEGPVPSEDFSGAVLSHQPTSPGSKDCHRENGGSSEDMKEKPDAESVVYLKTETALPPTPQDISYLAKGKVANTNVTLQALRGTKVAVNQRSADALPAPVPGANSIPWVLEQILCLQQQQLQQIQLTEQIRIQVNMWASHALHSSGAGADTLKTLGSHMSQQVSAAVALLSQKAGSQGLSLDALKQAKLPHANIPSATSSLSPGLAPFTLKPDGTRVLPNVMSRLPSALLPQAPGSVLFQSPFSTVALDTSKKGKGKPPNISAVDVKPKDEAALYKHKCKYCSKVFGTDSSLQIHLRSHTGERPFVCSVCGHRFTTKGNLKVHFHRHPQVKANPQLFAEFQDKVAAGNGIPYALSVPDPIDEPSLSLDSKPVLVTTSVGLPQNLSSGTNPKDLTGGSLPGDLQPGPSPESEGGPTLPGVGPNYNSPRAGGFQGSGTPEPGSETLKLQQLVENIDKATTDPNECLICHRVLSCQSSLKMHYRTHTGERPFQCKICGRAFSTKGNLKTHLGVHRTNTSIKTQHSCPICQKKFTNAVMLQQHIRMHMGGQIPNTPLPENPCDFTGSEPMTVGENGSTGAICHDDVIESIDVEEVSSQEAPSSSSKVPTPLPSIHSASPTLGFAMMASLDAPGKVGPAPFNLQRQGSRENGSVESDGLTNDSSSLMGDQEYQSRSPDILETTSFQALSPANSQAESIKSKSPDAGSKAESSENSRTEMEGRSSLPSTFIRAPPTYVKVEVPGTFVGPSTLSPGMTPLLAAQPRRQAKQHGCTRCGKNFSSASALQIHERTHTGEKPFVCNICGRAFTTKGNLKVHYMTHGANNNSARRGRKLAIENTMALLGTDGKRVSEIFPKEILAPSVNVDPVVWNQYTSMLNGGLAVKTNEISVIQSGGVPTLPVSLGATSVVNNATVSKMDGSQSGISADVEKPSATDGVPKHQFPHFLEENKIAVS
# Method: universal PBM
# Form: double-stranded DNA, one strand shown
# Medium: in vitro
# Tested at: 600 nM
# Notes: 8-mer, flanks averaged, mean of replicates
# Direction: higher = stronger binding
Strand,E-score
AGGTCATA,0.182
CGTAAGTA,0.112
GGTCACCA,-0.353
AGCACGAC,-0.284
CCCTCTTC,-0.119
CCGTCTTC,-0.18
AGTCTTCG,-0.0453
ACGGCTTA,-0.0413
AGTCGAGG,-0.219
GACATCTC,-0.0761
CGCGGACC,-0.369
CGGAAACC,-0.363
CGGTTATC,-0.0229
AGACCAAG,-0.183
CTCGTTTC,-0.0147
AACCCCTC,-0.236
CGCTAATC,-0.059
GGAGCAAC,-0.25
ATTTGGGA,0.124

# Block 3
# Target: Ras GTPase-activating protein-binding protein 1, RRM domain (G3BP1, Homo sapiens, UniProt Q13283)
# Chain of UniProt Q13283 (whole entry, looked up): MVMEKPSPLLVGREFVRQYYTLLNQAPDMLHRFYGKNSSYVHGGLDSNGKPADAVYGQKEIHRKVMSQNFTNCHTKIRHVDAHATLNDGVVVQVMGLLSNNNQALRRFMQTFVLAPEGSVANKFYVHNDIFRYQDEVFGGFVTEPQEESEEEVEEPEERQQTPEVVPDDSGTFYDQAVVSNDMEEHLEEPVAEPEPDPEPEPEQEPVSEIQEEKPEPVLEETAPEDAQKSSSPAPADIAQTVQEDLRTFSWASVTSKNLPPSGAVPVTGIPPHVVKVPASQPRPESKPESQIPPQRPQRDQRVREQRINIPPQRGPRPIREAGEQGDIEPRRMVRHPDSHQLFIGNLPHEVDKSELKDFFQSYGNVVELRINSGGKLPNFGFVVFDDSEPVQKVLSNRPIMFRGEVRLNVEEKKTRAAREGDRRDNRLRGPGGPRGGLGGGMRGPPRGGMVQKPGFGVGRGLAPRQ
# Method: RNA Bind-n-Seq
# Form: RNA
# Medium: in vitro
# Tested at: 1 µM
# Notes: whole 134-nt RNA, ends assumed
# Added: 150 mM KCl
# Baseline: input library
# Direction: higher = stronger binding
# Constant ends, left off below: GGGAGUUCUACAGUCCGACGAUC … UGGAAUUCUCGGGUGUCAAGG
Strand,log2 enrichment
CACAGACAACACGCACCCACACAGACACAGAGGGAAGGGGUUGGGAUGGGGACAGGGUGCACAGCAGGGCGGGGAAGGACCCCAGCCCCU,-0.189
GGUGAUGGUCAACAAGCCUCAACUGCCUCUGCUACAACUGCCAAGUUCCCCGCGUCCCACCCUCCUCUAGGUGCUCCAAGGGACCACCGG,-0.438
GUCCUGUGCUACACAUCGUAUGUACCGAAUCGGGGUUUGGGGAGGGGUUUUUUUGGGGAAAGUAUUAUGUUACGCCGUUCGGAUCUGCAC,0.839
UAAUUGAAGAACCCAUUUUGCUCAUUUUAGGCAUCGUUAAAGAAUCUGGAGUGAAGCACAAGGGAUUGAUUGAAAUACCCAAUCUUUCUG,-0.0535
CUGUGCUACACAUCGUAUGUACCGAAUCGGGAAAAAAAGGGAAAAAAAGGGAAAAAAAGGGGAAAGUAUUAUGUUACGCCGUUCGGAUCU,0.208
AAGUCCUGUGCUACACAUCGUAUGUACCGAAUCGGGCCCCGGCCCCGGGCCCCGGGAAAGUAUUAUGUUACGCCGUUCGGAUCUGCACUU,-0.932
UGGCCCUGGUGGCAUUCGGGGAGGAAGAGGUGGCCUCAUGGAUCGUGGUGGUCCCGGUGGAAUGUUCAGAGGUGGCCGUGGUGGAGACAG,0.869
UCCUGUGCUACACAUCGUAUGUACCGAAUCGGAAAAAAAGGUUUUUUUGGUUUUUUUGGAAAGUAUUAUGUUACGCCGUUCGGAUCUGCA,-0.257
CUCAAGUCCUGUGCUACACAUCGUAUGUACCGAAUCGGUGGUGGUUUUUUUGGAAAGUAUUAUGUUACGCCGUUCGGAUCUGCACUUCCA,-0.189
AAGUCCUGUGCUACACAUCGUAUGUACCGAAUCGGUUUUUGGUUUGGAAAAAAAGGAAAGUAUUAUGUUACGCCGUUCGGAUCUGCACUU,-0.201
CUCAAGUCCUGUGCUACACAUCGUAUGUACCGAAUCGGGAAGGAAGGGAAGGGAAAGUAUUAUGUUACGCCGUUCGGAUCUGCACUUCCA,-0.116
UCAAGGGUUAUACACGGAAAGCCGCUGCGCUGGAAGCGAUGAAGGACUACACCAAAGCCAUGGAUGUGUACCAGAAGGCGCUAGACCUGG,-0.266
CACAGACAACACGCACCCACACAGACACAGAGGGAAGGGGUUGGGAUGGGGACAGGGUGCACAGCAGGGCGGGGUAGGUCCCCAGCCCCU,-0.293
CUGUGCUACACAUCGUAUGUACCGAAUCGGGGUUUUUUUGGUUUUUUUGGGUUUUUUUGGGAAAGUAUUAUGUUACGCCGUUCGGAUCUG,-0.278

# Block 4
# Target: Prothrombin, mature alpha-thrombin (F2, Homo sapiens, UniProt P00734)
# Method: aptamer microarray, sandwich
# Form: DNA with 2'F-ANA
# Medium: in vitro
# Tested at: 200 nM
# Notes: whole 15-mer aptamer, many near background
# Added: Cy3 exosite-II aptamer, 400 nM
# Direction: higher = stronger binding
# Strand: GGTTGGTGTGGTTGG
Modification,mean fluorescence intensity [a.u.]
2'F-ANA at 1 6 8 9 11 12 14 15,69.9
2'F-ANA at 3 5 6 8 9 10 12 15,61.3
2'F-ANA at 1 5 8 13 14 15,44.1
2'F-ANA at 5 9 10 13 15,262
2'F-ANA at 5 10 14,45.1
2'F-ANA at 3 5 6 10 13 14 15,51.2
2'F-ANA at 1 2 4 6 9 10 11 12 14 15,48.1
2'F-ANA at 1 2 3 9 10 12 13 14 15,70.4
2'F-ANA at 1 3 5 6 7 8 9 10 11 13,50
2'F-ANA at 1 2 6 7 9 10 11 13 15,51.5
2'F-ANA at 1 3 6 7 9 10 12 14 15,112
2'F-ANA at 1 2 3 4 9 11 12 14 15,67.6
2'F-ANA at 3 4 5 7 8 9 10 11 12 13 14,48.8
2'F-ANA at 4 5 6 8 12 14,52.5
2'F-ANA at 1 2 4 6 7 8 9 11 13 14 15,52
2'F-ANA at 2 3 4 5 6 7 8 10 12 14,51.8
2'F-ANA at 1 5 6 7 8 11 15,51.6
2'F-ANA at 1 3 4 8 10,85.9
2'F-ANA at 1 9 10 11 12,62.1
2'F-ANA at 1 4 6 8 9 10 11 14 15,45.3
2'F-ANA at 2 4 5 6 7 9 12 14 15,61.9
2'F-ANA at 1 4 5 6 7 9 14,45.3
2'F-ANA at 1 2 3 4 6 8 9 10 11 12 15,69.8
2'F-ANA at 1 3 4 5 6 10 14 15,48.7
2'F-ANA at 2 3 4 5 6 9 12 15,152

# Block 5
# Target: RNA binding protein fox-1 homolog 2, RRM domain, GST-SBP tag (RBFOX2, Homo sapiens, UniProt O43251-10, residues 100-194)
# Method: RNA Bind-n-Seq
# Form: RNA
# Medium: in vitro
# Tested at: 365 nM
# Notes: natural RNA segment, single round, ends assumed
# Baseline: no-protein control
# Direction: higher = stronger binding
# Constant ends, left off below: GGGAGUUCUACAGUCCGACGAUC … UGGAAUUCUCGGGUGCCAA
# Target sequence (chain): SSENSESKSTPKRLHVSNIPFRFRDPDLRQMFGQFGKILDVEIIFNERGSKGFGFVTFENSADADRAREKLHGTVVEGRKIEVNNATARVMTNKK
Strand,RBNS enrichment (R)
ACGUGAGAUGAUAAUGAAAACUUUUAGUUUAAGAGUGAAGGGUUAAGUAACCUAACAGAGCUUUGAUGUUAUAGCUGCAUUAAAGAAGGUGAUUGUCAAUAUUACAGAAA,0.492
CUCAGGGCCCCCACAGGGGAAGGACCCAGCUCCUGUACAUACAUUUUAUUGCAUGCACUGUGACCUUGGGGGGAGACAAAGAGGGGGAUUGUACCCCCACCCCCUGCACC,0.956
GUCCACUUGUCUGGAAGAAUAACAAGAAAGCUGCUGCUUUCGAGAUCACCCGCCAGAGGCGGGGCACGAGGCACACUGUGUUAUACUGCAUGAGCCAUGAAUUGGGCUAG,1.69
CUGGAACCCCAGGCCAAAUGUAUGCUCUGCUUCCUUGAGUGCUGUAAGAGUUCCCACUGGCCUUGCUCUGAGGCCAAGAGCUUUUUCAAAUGCAGGCUGCAGGAUUAAGC,0.652
AGCUGGGGGUUGGGGGGACUGACCCUCCCCAGGGAGGUCUUACAAGUAGUGUGACCAGUCUUUUGUUUGUUUGUUUGGUUGGUUGUUUUUUGGAGACAGGGUUUCUCUGU,12.8
AGAGAGGUUCCCCACCCCUGUAACUCCUCACUGUACUGAUUUACUGGCGCAUGAAAUUCUAUUAAAAAUGCAUUCUUCUGAAUAAAAAGAGUAUUCACUAUUUAACUUCA,1.06
ACAAGUGUAUGCUUUCCACUCUGGUUGAUCAUUAGUUCCCUAGUACAUACUUAAAAGUUUACCAAAUGUUAACCAGAUUUUUGAAACCUCCCCCCCCCCCUAUUUAUUUA,1.14
UAUUUAAGCUCACAUUAGAGUUAAGUUGUAUUUUAUGUUAUUUAUAGAUCUGAAUUUUCUAUGUUUAGCUAUUUAAUGUUAAUUUCCCACAAUCCAUGGGGGCGCUUAGU,0.763
UAAAAAGUACAAAUUAAAAGAUUUGAGAAAGUGGUAUUUUUUUCUGAAAGCAAACAAUGGCUUGUAAAGUCAUUUGAAGAGACUUUCCAAUAUGAAUUCAAAAUUCCACU,0.502
AGACCAAAAUGUUCCUUUUAGUCCUCAAUGUUUUAUAUUCUUUUUGUUUUGAAAAUCUCAAUUUUAAUCAGGGGUUUUAAAAGAAAAUUGAAAGCCUGAACCUCCAUUUU,0.448
UCCAUUGCUCUUGGCUUCAUGGUGUUCCUGGAAGGCAGAUGAGCUGGUCAUUUCGCCUGGGACUCGGCACCUUUCCGAGUGCAGCUGGAGGGAUCUGAGCGCAGGAAGAC,0.786
UCUGUCAUAGGCAUAGAGAGUUGCACAUAAAAAAUACCGAAGAAAACCCAAAAUUCAAUCAACAAUUCUGUCUUAUUGAAGAGUUGCUAGGAUUCAGAGUAAAACUCAAA,0.273
